Experimental data pooled from the literature.
Compare with care: the assays were run in different laboratories. ± marks the error that the study gave.
Cell line: MDA-MB-231

| SMILES | assay | conditions | IC50 |
| --- | --- | --- | --- |
| CN(C)c1cccc2c(S(=O)(=O)N[C@H](C(=O)Nc3ccc(C(=O)NO)cc3)c3ccccc3)cccc12 | cell growth or viability, MTT | 48 h | 4.46 µM |
| O=C(/C=C/c1ccc(Cn2cc(Cn3cnc4ccc(F)cc4c3=O)nn2)cc1)NO | cell growth or viability, MTT | 48 h | 4.45 µM |
| Cc1cc2ncc(-c3ccccc3OCC(=O)NCCCCNC(=O)COc3ccccc3-c3cnc4cc(C)c(C)cc4n3)nc2cc1C | cell growth or viability, MTT | – | 28.1 µM |
| COc1cc(/C=C/C(=O)CC(=O)/C=C/c2ccc(O)c(OC)c2)ccc1O | cell viability, MTT | 48 h, serum-free medium | 11 ± 3 µg/mL |
| COC(=O)c1c(-c2cc(OC)c(OC)c(OC)c2)c2n(c1C(=O)OC)CCn1cccc1-2 | cell growth or viability, MTT | 48 h | 75.7 µM |
| O=c1c(-c2ccc(O)cc2)coc2cc(O)ccc12 | cell growth or viability, trypan blue | 72 h | 179 µM |
| COc1cc2c(cc1O)CC[C@@H]1[C@@H]2CC[C@]2(C)[C@@H](O)CC[C@@H]12 | cell proliferation, MTT | 48 h | 1.27 µM |
| O=C(NO)c1ccc(Cn2cc(Cn3cnc4cc(F)ccc4c3=O)nn2)cc1 | cell growth or viability, MTT | 48 h | 7.47 µM |
| COC1=C(OC)[C@H](O)[C@H](C/C=C(\C)CC/C=C(\C)CCC=C(C)C)[C@@H](C)C1=O | cell growth or viability, MTS | 72 h | 19 µM |
| O=c1[nH]nc(O)c2c(-c3cccc([N+](=O)[O-])c3)c3n(c12)CCn1cccc1-3 | cell growth or viability, MTT | 48 h | 13.1 µM |
| CC/C(=C(\c1ccccc1)c1ccc(OCCN(C)C(=O)CCCCOc2ccc3[nH]cc(CCNC(C)=O)c3c2)cc1)c1ccccc1 | cell survival, MTT | day 9, dosed days 2, 4, 7 | 11.6 µM |
| COc1cc2nc(N3CCCN(C)CC3)nc(NC3CCN(Cc4ccccc4)CC3)c2cc1OC | in-cell western, refers to: H3K9me2 | 48 h | 0.5 ± 0.043 µM |
| COc1ccc(N2CCN(CC(=O)Nc3ccc(C(=O)C=Cc4ccco4)cc3)CC2)cc1 | cell growth or viability, MTT | – | 8.51 µM |
| COC(=O)c1c(-c2ccc(Cl)cc2Cl)c2n(c1C(=O)OC)CCn1cccc1-2 | cell growth or viability, MTT | 48 h | 85.7 µM |
| O=C(CN1CCN(c2ccc(Cl)cc2)CC1)Nc1ccc(C(=O)C=Cc2ccco2)cc1 | cell growth or viability, MTT | – | 4.8 µM |
| CCOC(=O)c1ccc2c(c1)n(CC)c[n+]2CC | cell growth or viability, crystal violet | 96 h | > 100 µM |
| COc1ccc(C(=O)N[C@H](C(=O)Nc2ccc(C(=O)NO)cc2)c2ccccc2)cc1 | cell growth or viability, MTT | 48 h | 4.65 µM |
| O=C(CN1CCN(c2ccc(Cl)cc2)CC1)Nc1ccc(C(=O)C=Cc2ccc(Cl)cc2Cl)cc1 | cell growth or viability, MTT | – | 26.4 µM |
| CC(=O)c1nn(-c2ccc(Cl)cc2[N+](=O)[O-])/c(=N/N=C(\C)c2ccc(NC(=O)c3cccnc3)cc2)s1 | cytotoxicity, MTT | 24 h | 7.9 ± 0.6 µM |
| O=c1[nH]nc(O)c2c(-c3ccc(Cl)cc3)c3n(c12)CCn1cccc1-3 | cell growth or viability, MTT | 48 h | 53.3 µM |
| O=C(COc1ccc(C2=Nn3c(Cc4ccccc4)nnc3SC2)cc1)NCCNC(=O)COc1ccc(C2=Nn3c(Cc4ccccc4)nnc3SC2)cc1 | cell growth or viability, MTT | – | 29.2 µM |
| NS(=O)(=O)c1ccc(NC(=O)Nc2ccc(F)cc2)cc1 | cell proliferation, flow cytometry cell count | 72 h, hypoxia 1% O2 | 23.4 µM |
| C=CCc1cc(OC)c(O)c(OC)c1 | MTT | 24 h | > 50 µM |
| COc1ccc(-c2cc(=O)n3c(ccn3Cc3cn([C@H]4O[C@H](COC(C)=O)[C@@H](OC(C)=O)[C@H](OC(C)=O)[C@@H]4OC(C)=O)nn3)n2)cc1 | cell growth or viability, MTT | 72 h | 37.6 µM |

| SMILES | assay | conditions | IC50 |
| --- | --- | --- | --- |
| CC(=O)N1N=C(c2ccc(NC(=O)CN3CCN(c4ccc(Cl)cc4)CC3)cc2)CC1c1ccc(Cl)cc1Cl (stereo not drawn) | cell growth or viability, MTT | – | 64.7 µM |
| COc1cc(-c2c3n(c4c(=O)[nH]nc(O)c24)CCn2cccc2-3)ccc1O | cell growth or viability, MTT | 48 h | 15.1 µM |
| C[C@@H]1O[C@@H](OC(=O)/C=C/c2ccc(O)cc2)[C@H](OC(=O)/C=C/c2ccc(O)c(O)c2)[C@H](O)[C@H]1O (relative stereo) | cell growth or viability, MTT | – | 13.3 µM |
| Cc1ccc2ncn(Cc3cn(Cc4ccc(C(=O)NO)cc4)nn3)c(=O)c2c1 | cell growth or viability, MTT | 48 h | 46.5 µM |
| COc1ccc(N2CCN(CC(=O)Nc3ccc(C(=O)C=Cc4ccc(Cl)cc4Cl)cc3)CC2)cc1 | cell growth or viability, MTT | – | 88.6 µM |
| CC(=O)OC[C@H]1O[C@@H]([S-])[C@H](OC(C)=O)[C@@H](OC(C)=O)[C@@H]1OC(C)=O.CCP(CC)CC.[Au+] | cell growth or viability, crystal violet | 96 h | 1.2 µM |
| COc1cccc2c1C(=O)c1c(O)c3c(c(O)c1C2=O)C[C@@](O)(C(=O)CO)C[C@@H]3O[C@H]1C[C@H](N)[C@H](O)[C@H](C)O1 | cell growth or viability, MTT | 48 h | 1.2 µM |
| COc1cc(C2CC(c3ccc(NC(=O)CN4CCN(c5ccc(Cl)cc5)CC4)cc3)=NN2C(C)=O)cc(OC)c1OC (stereo not drawn) | cell growth or viability, MTT | – | 33.8 µM |
| O=C(NO)c1ccc(Cn2cc(Cn3cnc4ccc(I)cc4c3=O)nn2)cc1 | cell growth or viability, MTT | 48 h | 4.56 µM |
| O=c1c(-c2ccc(O)cc2)coc2cc(O)cc(O)c12 | cell growth or viability, trypan blue | 72 h | 51 µM |
| COC(=O)c1c(-c2ccccc2F)c2n(c1C(=O)OC)CCn1cccc1-2 | cell growth or viability, MTT | 48 h | 76.1 µM |
| CC(=O)OC[C@@H]1O[C@H](n2cc(Cn3ccc4nc(-c5ccc(F)cc5)cc(=O)n43)nn2)[C@@H](OC(C)=O)[C@H](OC(C)=O)[C@H]1OC(C)=O (stereo in doubt) | cell growth or viability, MTT | 72 h | 54.9 µM |
| O=C(COc1ccccc1C1=Nn2c(nnc2-c2ccccc2)SC1)NCCNC(=O)COc1ccccc1C1=Nn2c(nnc2-c2ccccc2)SC1 | cell growth or viability, MTT | – | 23.3 µM |
| COc1ccc(C=CC(=O)c2ccc(NC(=O)CN3CCN(c4ccc(Cl)cc4)CC3)cc2)cc1 | cell growth or viability, MTT | – | 38.7 µM |
| COC(=O)c1c(-c2ccc(Br)cc2)c2n(c1C(=O)OC)CCn1cccc1-2 | cell growth or viability, MTT | 48 h | 82.7 µM |
| O=C(/C=C/c1ccc(Cn2cc(Cn3cnc4cc(F)ccc4c3=O)nn2)cc1)NO | cell growth or viability, MTT | 48 h | 7.17 µM |
| CCOC(=O)C(C(C)=O)=C1Sc2nc3ccc(S(=O)(=O)N4CCCC4)cc3nc2S1 | cell growth or viability, MTT | 24 h | 10.5 µM |
| CC(=O)N1N=C(c2ccc(NC(=O)CN3CCN(c4ccc(Cl)cc4)CC3)cc2)CC1c1ccco1 (stereo not drawn) | cell growth or viability, MTT | – | 27.8 µM |
| COc1ccccc1NC(=O)N[C@H](C(=O)Nc1ccc(C(=O)NO)cc1)c1ccccc1 | cell growth or viability, MTT | 48 h | 4.34 µM |
| C#Cc1cccc(Nc2ncnc3cc(OCCOC)c(OCCOC)cc23)c1 | cell growth or viability, MTT | – | 1.02 µM |
| O=C(/C=C/c1ccc(O)cc1)CC(=O)/C=C/c1ccc(O)cc1 | cell growth or viability, MTT | 48 h | 12.1 µg/mL |
| O=C(COc1ccc(C2=Nn3c(nnc3-c3ccccc3)SC2)cc1)NCCCCNC(=O)COc1ccc(C2=Nn3c(nnc3-c3ccccc3)SC2)cc1 | cell growth or viability, MTT | – | 15 µM |
| COC(=O)c1c(-c2ccccc2C)c2n(c1C(=O)OC)CCn1cccc1-2 | cell growth or viability, MTT | 48 h | 78.5 µM |
| CCCCCCCCCCC[C@H](C[C@@H]1OC(=O)[C@@H]1CCCCCC)OC(=O)CNC=O | cell growth or viability, MTS | 48 h | > 100 µM |

Repeated from above:
| SMILES | assay | conditions | IC50 |
| --- | --- | --- | --- |
| O=C(/C=C/c1ccc(Cn2cc(Cn3cnc4cc(F)ccc4c3=O)nn2)cc1)NO | cell growth or viability, MTT | 48 h | 7.17 µM |
| COc1ccccc1NC(=O)N[C@H](C(=O)Nc1ccc(C(=O)NO)cc1)c1ccccc1 | cell growth or viability, MTT | 48 h | 4.34 µM |
| COc1ccc(-c2cc(=O)n3c(ccn3Cc3cn([C@H]4O[C@H](COC(C)=O)[C@@H](OC(C)=O)[C@H](OC(C)=O)[C@@H]4OC(C)=O)nn3)n2)cc1 | cell growth or viability, MTT | 72 h | 37.6 µM |
| COC1=C(OC)[C@H](O)[C@H](C/C=C(\C)CC/C=C(\C)CCC=C(C)C)[C@@H](C)C1=O | cell growth or viability, MTS | 72 h | 19 µM |
| COc1cc(C2CC(c3ccc(NC(=O)CN4CCN(c5ccc(Cl)cc5)CC4)cc3)=NN2C(C)=O)cc(OC)c1OC (stereo not drawn) | cell growth or viability, MTT | – | 33.8 µM |
| O=c1c(-c2ccc(O)cc2)coc2cc(O)ccc12 | cell growth or viability, trypan blue | 72 h | 179 µM |
